Results of several laboratories.
Compare with care: the assays were run in different laboratories. Values joined by “and” are separate records of one study, mostly repeats; a detail may differ. ± gives the spread as reported.
Read-out: viral replication

Compound = COC(=O)C1NC(=O)C2NC(=O)C(NC(=O)C3NC(=O)C4NC(=O)C(NC(=O)C(Nc5c(OC)c(=O)c5=O)c5ccc(O)c(c5)Oc5cc4cc(O)c5C)C(O)c4ccc(cc4)Oc4cc3cc(c4O)Oc3ccc(cc3)C2O)c2ccc(O)c(c2)-c2c(O)cc(O)cc21 (stereo not drawn); organism = Influenza A virus H3N2; test system = X-31; EC50 = 3.2 ± 1.2 µM
Compound = Cc1ccc(N2CC3CC(C2)N3C)cc1C(=O)NC1(c2ccc3c4c(cccc24)C(=O)N3C)CC1; organism = human coronavirus 229E; test system = Huh-7; EC50 = 2.66 µM
Compound = CCN(CC)C12C3CCC4C3C3C(CCC31)C42; organism = Influenza A virus; test system = A/Ishikawa/7/82 (H3N2); EC50 = > 100 µM
Compound = CSCC[C@@H](C=O)NC(=O)[C@H](CC(C)C)NC(=O)[C@H](CC(C)C)NC(C)=O; organism = human coronavirus 229E; EC50 = 0.08 ± 0.01 µM
Compound = c1csc(CNC23C4CCC5C4C4C(CCC42)C53)c1; organism = Influenza A virus; test system = MDCK, A/PR/8/34 (H1N1); EC50 = 8 µM
Compound = CCC[C@H](NC(=O)[C@H](CC(C)C)NC(=O)OCc1ccccc1)C(=O)C(=O)NCc1ccccn1; organism = human coronavirus 229E; EC50 = 0.1 ± 0.01 µM
Compound = NCC12C3CCC4C3C3C(CCC31)C42; organism = Influenza A virus; test system = MDCK, A/PR/8/34 (H1N1); EC50 = 9.1 µM and < 10 µM
Compound = O=C(CCN(CCC(=O)N[C@@H](Cc1c[nH]c2ccccc12)C(=O)O)C(=O)CCN(CCC(=O)N(CCC(=O)N[C@@H](Cc1c[nH]c2ccccc12)C(=O)O)CCC(=O)N[C@@H](Cc1c[nH]c2ccccc12)C(=O)O)C(=O)CCC(CCC(=O)N(CCC(=O)N(CCC(=O)N[C@@H](Cc1c[nH]c2ccccc12)C(=O)O)CCC(=O)N[C@@H](Cc1c[nH]c2ccccc12)C(=O)O)CCC(=O)N(CCC(=O)N[C@@H](Cc1c[nH]c2ccccc12)C(=O)O)CCC(=O)N[C@@H](Cc1c[nH]c2ccccc12)C(=O)O)(CCC(=O)N(CCC(=O)N(CCC(=O)N[C@@H](Cc1c[nH]c2ccccc12)C(=O)O)CCC(=O)N[C@@H](Cc1c[nH]c2ccccc12)C(=O)O)CCC(=O)N(CCC(=O)N[C@@H](Cc1c[nH]c2ccccc12)C(=O)O)CCC(=O)N[C@@H](Cc1c[nH]c2ccccc12)C(=O)O)[N+](=O)[O-])N[C@@H](Cc1c[nH]c2ccccc12)C(=O)O; organism = human coronavirus 229E; EC50 = 8.9 µM
Compound = CONC(=O)[C@H]1[C@@H](O)[C@@]2(O)c3c(OC)cc(OC)cc3O[C@@]2(c2ccc(OC)cc2)[C@@H]1c1ccccc1; organism = human coronavirus 229E; test system = MRC5; EC50 = 0.00288 µM
Compound = O=C1/C(=N\NC(=S)NN=Cc2cccs2)c2ccccc2N1Cc1ccccc1; organism = Influenza A virus H3N2; assay = MTS; test system = MDCK; EC50 = > 4 µM
Compound = CN1CC23C4C=CC5C4C4C2C=CC4C53C1; organism = Influenza A virus; test system = MDCK, A/FM/1/47 (H1N1); EC50 = 10 ± 3 µM
Compound = CN[C@H](CC(C)C)C(=O)N[C@H]1C(=O)N[C@@H](CC(N)=O)C(=O)N[C@H]2C(=O)N[C@H]3C(=O)N[C@H](C(=O)N[C@H](C(=O)O)c4cc(O)cc(O)c4-c4cc3ccc4O)[C@H](O)c3ccc(c(Cl)c3)Oc3cc2cc(c3O)Oc2ccc(cc2Cl)[C@H]1O; organism = Influenza A virus H3N2; test system = MDCK, A/HK/7/87; setting = 72 h; EC50 = ≥ 31 µM
